Experimental data gathered from unrelated publications.
Protocols differ between the studies behind these lines. Several values in a cell are separate wells, animals, samples, runs or records. ± marks the error that the study gave.
Fructose-1,6-bisphosphate aldolase/phosphatase: Fructose-1,6-bisphosphate aldolase/phosphatase (Helicobacter pylori, UniProt Q9ZMG8)
FURIN: Furin (FURIN, Homo sapiens, UniProt P09958)
SPHK2: Sphingosine kinase 2 (SPHK2, Homo sapiens, UniProt Q9NRA0)
Oprk1: Kappa-type opioid receptor (Oprk1, Mus musculus, UniProt P33534)
ampC: ampC (Burkholderia multivorans, UniProt A0A0H3KN52)
TMEM97: Sigma intracellular receptor 2 (TMEM97, Homo sapiens, UniProt Q5BJF2)
gag-pol protease: Gag-Pol polyprotein, protease (gag-pol, Human immunodeficiency virus type 1 group M subtype B, UniProt P04585)

| Substance | target | assay | test system | conditions | Ki |
| --- | --- | --- | --- | --- | --- |
| CCCCCCCC(=O)O[C@H]1/C(=C/C(=O)OC)C[C@H]2C[C@H]([C@@H](C)O)OC(=O)CCCC(=O)OCC(C)(C)[C@]1(O)O2 | PRKCA (Homo sapiens, UniProt P17252) | ligand displacement, radioligand |  |  | 0.24 µM |
| CC(C)(C)OC(=O)[C@H](CCCCNC(=O)c1ccc(CNC(=N)N)c(I)c1)NC(=O)CCCCCCC(=O)NCCCC[C@H](NC(=O)N[C@@H](CCC(=O)O)C(=O)O)C(=O)O | FOLH1 (Homo sapiens, UniProt Q04609) | inhibitor, Amplex Red fluorescence | LNCaP cell extract | together with: NAAG | 0.00018 µM |
| O=C(c1ccc(S(=O)(=O)NCCF)cc1)C1CCN(C2Cc3ccccc3CC2O)CC1 (racemic) | SLC18A3 (Homo sapiens, UniProt Q16572) | ligand displacement, radioligand |  |  | 0.013 µM |
| CSC[C@H]1O[C@@H](n2cnc3c2N=CNC[C@H]3O)C[C@@H]1O | Fructose-1,6-bisphosphate aldolase/phosphatase | enzyme activity, inhibitor | J99 | pH 7.0, 25 °C, slow-onset second phase, together with: 400 µM MTA | > 10 µM |
| CC(=O)N[C@@H](CC(C)C)C(=O)N[C@@H](CC(C)C)C(=O)N[C@@H](CC(C)C)C(=O)N[C@@H](CC(C)C)C(=O)N[C@@H](CCCNC(=N)N)C(=O)N[C@H](C(=O)N[C@@H](CCCCN)C(=O)NCc1ccc(C(=N)N)cc1)C(C)(C)C | FURIN | enzyme activity, inhibitor, fluorescence |  |  | 0.000193 µM |
| CCCCCCCCCCCCC/C=C/[C@@H](O)[C@H](CO)N(C)C | SPHK2 | enzyme activity, inhibitor, TLC |  |  | 20 µM |
| Nc1ccc(C=Cc2ccc(N)cc2S(=O)(=O)O)c(S(=O)(=O)O)c1 | folA (Escherichia coli, UniProt P0ABQ4) | inhibitor |  | from IC50, non-competitive | 36.7 µM |
| O=C(/C=C/c1ccoc1)N[C@@H]1CC[C@@]2(O)[C@H]3Cc4cccc5c4[C@@]2(CCN3CC2CC2)[C@H]1O5 | Oprk1 | ligand displacement, radioligand |  |  | 0.00098 µM |
| CN1CCC(c2noc3cc(F)ccc23)CC1 | HTR2A (Homo sapiens, UniProt P28223) | ligand displacement, radioligand |  | cell membranes | 0.0123 µM and ~0.012 µM |
| N[C@@H](CC(=O)O)C(=O)O | pycA (Staphylococcus aureus, UniProt A0A0H3JRU9, K411A) | pyruvate carboxylation, allosteric inhibitor, MDH-coupled |  |  | 24000 ± 3000 µM |
| O=C(O)[C@H]1/C(=C/CO)O[C@@H]2CC(=O)N21 | ampC | enzyme activity, inhibitor |  |  | 5 ± 1 µM |
| CSC[C@H]1O[C@@H](n2cnc3c2N=CNC[C@H]3O)[C@H](O)[C@@H]1O | Fructose-1,6-bisphosphate aldolase/phosphatase | enzyme activity, inhibitor | J99 | pH 7.0, 25 °C, slow-onset second phase, together with: 400 µM MTA | 0.063 ± 0.004 µM |
| CC1Oc2cc3c(-c4c(O)cc(O)c5c(O)c6c(cc45)OC(C)C(C)C6=O)c(O)cc(O)c3c(O)c2C(=O)C1C (stereo not shown) | Replicase polyprotein 1ab, main protease (Feline coronavirus, UniProt Q98VG9) | enzyme activity, inhibitor, fluorescence |  |  | 3.6 µM |
| c1ccc(CCN2CCCCC2)cc1 | opioid receptors, rat | binding | rat brain | 60 min, 25 °C, together with: [3H]bremazocine 0.5 nM | > 10 µM |
| c1ccc(CCCCN2CCC(c3ccccc3)CC2)cc1 | TMEM97 | ligand displacement, radioligand |  |  | 0.0008 µM |
| CN[C@H]1CC[C@@H](c2ccc(Cl)c(Cl)c2)c2ccccc21 | Cytochrome P450 2B6 (CYP2B6, Homo sapiens, UniProt P20813, K262R) |  |  | 5 min, pH 7.4 | 1.76 µM and 1.7 µM |
| Oc1ccc(Nc2nc(-c3ccc(Cl)cc3)cs2)cc1 | SPHK2 | enzyme activity, inhibitor, FlashPlate |  |  | 33 µM |
| C=C[C@H]1CN2CC[C@H]1C[C@H]2[C@H](O)c1ccnc2ccccc12 | SLC6A4 (Homo sapiens, UniProt P31645, S438T) | transporter uptake, inhibitor, radiometric |  |  | 196 µM |
| O=C(O)c1cccc(CS(=O)(=O)NCB(O)O)c1 | ADC-7 beta-lactamase, Acinetobacter baumannii | inhibitor |  | 5 min preincubation, pH 7.4, together with: nitrocefin 60 µM | 0.16 µM |

| Substance | target | assay | test system | conditions | Ki |
| --- | --- | --- | --- | --- | --- |
| CN1CCN(CCc2ccc(Cl)c(Cl)c2)CC1 | TMEM97 | ligand displacement, radioligand |  |  | 0.21 µM |
| c1ccc(C2CO2)cc1 (stereo not shown) | Cytochrome P450 2E1 (CYP2E1, Homo sapiens, UniProt P05181) | inhibitor |  | 30 min, pH 7.4 | 1000 µM |
| C[C@]1(Cn2ccnn2)[C@H](C(=O)O)N2C(=O)C[C@H]2S1(=O)=O | ampC | enzyme activity, inhibitor |  |  | 0.6 to 1.1 µM and 0.6 µM |
| COc1ccc(C(=O)C=Cc2ccc(NC(=O)CN3CCN(S(C)(=O)=O)CC3)cc2)cc1OC | ACHE (Homo sapiens, UniProt P22303) | enzyme activity, inhibitor |  |  | 0.047 µM |
| CC(=O)N[C@@H](CC(C)C)C(=O)N[C@@H](CC(C)C)C(=O)N[C@@H](CC(C)C)C(=O)N[C@@H](CC(C)C)C(=O)N[C@@H](CCCNC(=N)N)C(=O)N[C@H](C(=O)N[C@@H](CCCNC(=N)N)C(=O)NCc1ccc(C(=N)N)cc1)C(C)C | FURIN | enzyme activity, inhibitor, fluorescence |  |  | 0.000164 µM |
| O=C(O)C(Cc1nnn[nH]1)[C@@H]1CCN[C@H]1C(=O)O (relative stereo) | NMDA receptor, rat | binding | cortical synaptosomes | together with: [3H]-CGP 39653 | 0.25 µM |
| CN(C(=O)/C=C/c1ccoc1)[C@@H]1CC[C@@]2(O)[C@H]3Cc4cccc5c4[C@@]2(CCN3CC2CC2)[C@H]1O5 | Oprk1 | ligand displacement, radioligand |  |  | 0.00291 µM |
| Nc1ncnc2c1ncn2[C@@H]1O[C@H](CSCC[C@H](N)C(=O)O)[C@@H](O)[C@H]1O | bioB (Escherichia coli, UniProt P12996) | biotin synthase activity, competitive inhibitor |  |  | 0.1 to 0.5 µM |
| COc1ccc(S(=O)(=O)N(CC(C)C)C[C@@H](O)[C@H](Cc2ccccc2)NC(=O)O[C@H]2CCOC2)cc1 | gag-pol protease | protease activity, inhibitor, FRET substrate cleavage |  |  | 0.0005 µM |
| O=c1[nH]cnc2c1ncn2[C@@H]1O[C@H](CO)[C@@H](O)[C@H]1O | Trichomonas vaginalis nucleoside transporter | inhibitor | trophozoites, Trichomonas vaginalis | low-affinity component, together with: [3H]-guanosine | 146 ± 26 µM |
| CC(C)[C@H](NC(=O)[C@H](CCCNC(=N)N)NC(=O)[C@H](C)NC(=O)[C@H](CCCNC(=N)N)NC(=O)Cc1ccccc1)C(=O)N[C@@H](CCCNC(=N)N)C(=O)NCc1ccc(C(=N)N)cc1 | FURIN | enzyme activity, inhibitor, fluorescence |  |  | 4.59e-05 µM and ~5e-05 µM |
| O=[PH](O)O | GPD1 (Homo sapiens, UniProt P21695) | enzyme activity, competitive inhibitor |  | pH 7.5, together with: DHAP, NADH | 42000 ± 6000 µM |
| polymyxin B | lipopolysaccharide (Klebsiella pneumoniae ATCC 13883) | binding, displacement |  |  | 0.5 ± 0.2 µM |
| Cc1cccc(C)c1OCC(=O)N[C@@H](Cc1ccccc1)[C@@H](O)C[C@H](Cc1ccccc1)NC(=O)[C@H](C(C)C)N1CCCNC1=O | Gag-Pol polyprotein, protease (Human immunodeficiency virus type 1 group M subtype B, UniProt P03367, C567A/C595A/L533I/L563I/L576V/Q507K) | protease activity, inhibitor |  |  | 0.0045 ± 0.0005 µM |
| CC1(C)C[C@H]2[C@@H]3CC=C4C[C@@H](OC5CCCCO5)CC[C@]4(C)[C@H]3CC[C@]2(C)[C@H]1O (stereo partly shown) | OSBP2 (Homo sapiens, UniProt Q969R2) | [3H]25-hydroxycholesterol binding, inhibitor, competitive radioligand binding | HEK293T cell lysate | together with: 20 nM [3H]25-hydroxycholesterol | 0.098 ± 0.015 µM |
| NC(CCc1ccccc1)P(=O)(O)CC(Cc1ccc(O)cc1)C(=O)O (stereo not shown) | Aminopeptidase N (Neisseria meningitidis, UniProt Q9JYV4) | inhibitor |  | together with: L-Arg-ACC 20 µM | 0.054 ± 0.005 µM |
| CC(C)[C@H](NC(=O)[C@H](CCCNC(=N)N)NC(=O)[C@@H](CCCNC(=N)N)NC(=O)[C@@H](CCCNC(=N)N)NC(=O)[C@H](N)CCCNC(=N)N)C(=O)N[C@@H](CCCNC(=N)N)C(=O)NCc1ccc(C(=N)N)cc1 | FURIN | enzyme activity, inhibitor, fluorescence |  |  | 7.54e-05 µM |
| CC(C)CN(C[C@@H](O)[C@H](Cc1ccccc1)NC(=O)O[C@H]1CO[C@H]2OCC[C@H]21)S(=O)(=O)c1ccc(C(=O)O)cc1 | gag-pol protease | enzyme activity, inhibitor |  |  | 1.2e-05 µM |

Excerpt of the above:
| Substance | target | assay | test system | conditions | Ki |
| --- | --- | --- | --- | --- | --- |
| C[C@]1(Cn2ccnn2)[C@H](C(=O)O)N2C(=O)C[C@H]2S1(=O)=O | ampC | enzyme activity, inhibitor |  |  | 0.6 to 1.1 µM and 0.6 µM |
| COc1ccc(S(=O)(=O)N(CC(C)C)C[C@@H](O)[C@H](Cc2ccccc2)NC(=O)O[C@H]2CCOC2)cc1 | gag-pol protease | protease activity, inhibitor, FRET substrate cleavage |  |  | 0.0005 µM |
